# Assay results gathered from unrelated publications.
# Protocols differ between the studies behind these lines.
# Target: Dual specificity protein kinase CLK3 (CLK3, Homo sapiens, UniProt P49761)
Compound,assay,test system,setting,scale,quantity,result
CC(C)=CC1OC(C)(C)C2C=C3C(=O)C(Cl)=CC(O)C3C3C(O)C4OC4C(=O)C132 (centres unmarked),"cell-free assay, competition with immobilised ligand",,10 µM,,remaining binding,100%
C=CC(=O)N1Cc2nc(-c3cc(-c4cc(Cl)cnc4Cl)c(F)cc3F)n(-c3ccncn3)c2C1,"cell-free assay, inhibitor",,1 µM,,inhibition,9.4%
Nc1ncc2c(n1)-c1c([nH]c3ccc(C4=CCOCC4)cc13)CCC2,"binding, competition with immobilised ligand",,1 µM,,remaining binding,90%
CCN1CCN(Cc2ccc(C(=O)Nc3ccc(C)c(NCc4cnc5[nH]ccc5c4OC)c3)cc2C(F)(F)F)CC1,"binding, competition with immobilised ligand",,1 µM,,remaining binding,100%
Cc1cccc(O[C@H]2CCC[C@@H](C(C)CNCc3ccncc3)C2)c1 (relative stereo),"enzyme activity, inhibitor",,10 µM,,inhibition,0%
C=CC(=O)Nc1cccc(-c2cnc3[nH]cc(C(=O)NC(C)(C)C)c3n2)c1,"enzyme activity, inhibitor",,0.1 µM,,inhibition,15%
COc1c(Cl)cccc1Nc1c(-c2ccncc2C#C[C@@]2(C)CCCN2C(=O)/C=C/CN(C)C)[nH]c2c1C(=O)NCC2,"binding, competition with immobilised ligand",,3 µM,,remaining binding,100%
Nc1ncc(-c2cc(-c3cnn(CC(F)(F)F)c3)ncc2F)nc1C(=O)NC1CNCC(F)C1 (centres unmarked),enzyme activity,,1 µM,baseline: DMSO control,remaining activity,108%
CNC1C[S+]2CC[S+]3CC[S+](C1)[Ru-4]321([N]=C=S)[n]2c3ccc(OC)cc3c3c4c(c5cc(F)c[n+]1c5c32)C(=O)NC4=O (centres unmarked),KinomeScan,,0.1 µM,baseline: untreated,remaining binding,100%
Cc1cnc2nc1Nc1cccc(c1)COC/C=C/COCc1cc(ccc1OCCN1CCOCC1)N2,binding,,0.1 µM,,remaining binding,100%
NC(=O)C[C@H]1CCc2sc3ncnc(O[C@H]4CC[C@H](N5CCOCC5)CC4)c3c21,"enzyme activity, inhibitor",,10 µM,,inhibition,-4%
C=CC(=O)N1CCCC(n2c(=O)c3ncccc3n(Cc3ccc(Oc4ccccc4)cc3)c2=O)C1 (centres unmarked),"cell-free assay, competition with immobilised ligand",,1 µM,,remaining binding,95%
C=CC(=O)Nc1cc(-c2nn(C3CCN(CCNC(=O)[C@H](C)CCC45CC6CC(CC(C6)C4)C5)CC3)c3ncnc(N)c23)ccc1Oc1ccccc1,"inhibitor, KiNativ profiling",biochemical,2 µM,,inhibition,17%
COc1cc(Nc2nc(C)cc(-c3cnn4nc(OC)ccc34)n2)cc(C(F)(F)F)c1,"binding, competition with immobilised ligand",,1 µM,,remaining binding,80%
